Assay results pooled from the literature.
± gives the spread as reported.
UniProt P24666, sequence (whole entry, looked up): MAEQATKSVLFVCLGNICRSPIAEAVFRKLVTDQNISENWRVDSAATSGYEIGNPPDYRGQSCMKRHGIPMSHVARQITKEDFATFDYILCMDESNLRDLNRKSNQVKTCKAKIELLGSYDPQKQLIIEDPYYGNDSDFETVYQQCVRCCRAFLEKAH
UniProt P50613, sequence (whole entry, looked up): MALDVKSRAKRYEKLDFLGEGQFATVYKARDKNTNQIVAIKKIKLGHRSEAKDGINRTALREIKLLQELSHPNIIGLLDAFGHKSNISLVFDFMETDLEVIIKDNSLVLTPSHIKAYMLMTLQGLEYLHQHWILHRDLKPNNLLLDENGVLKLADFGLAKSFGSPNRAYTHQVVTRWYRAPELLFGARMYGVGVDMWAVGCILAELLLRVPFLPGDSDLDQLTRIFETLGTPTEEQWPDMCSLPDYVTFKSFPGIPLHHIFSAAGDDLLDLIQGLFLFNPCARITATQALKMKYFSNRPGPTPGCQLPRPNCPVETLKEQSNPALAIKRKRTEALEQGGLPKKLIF

SMILES | target or system | assay | system | conditions | scale | endpoint | result
O=S(=O)(F)c1cc(C(F)(F)F)cc(C(F)(F)F)c1 |  | chemical stability, HPLC-MS | borate buffered saline | pH 10.2, no N-acetyl-lysine |  | degradation rate constant | 27.2 h⁻¹
Clc1cc2c(cc1Cl)Oc1cc(Cl)c(Cl)cc1O2 |  |  | female Sprague-Dawley rat | oral gavage, 10 µg/kg, day 28, every 28 d for 4 d | baseline: vehicle | terminal body weight decrease | 12.9%
c1cc2ccc3cccc4ccc(c1)c2c34 |  |  | pooled human liver microsomes | 0.25 µM, pH 7.4 |  | metabolism rate | 60 pmol/min/mg
CCc1ccc(CC/C=C/c2ccc3c(c2)C(=O)CC3)cc1 |  |  | Sprague-Dawley rat, female | oral, 30 mg/kg/day, 14 days |  | Hemoglobin | 147 g/L
COc1cc(Nc2ncc(F)c(Nc3ccc4c(n3)NC(=O)C(C)(C)O4)n2)cc(OC)c1OC | Low molecular weight phosphotyrosine protein phosphatase, isoform A (ACP1, Homo sapiens, UniProt P24666) |  |  | LMPTP-A |  | IC50 | > 10 µM
CC1(C)[C@H](C=C(Cl)Cl)[C@H]1C(=O)OCc1cccc(Oc2ccccc2)c1 |  | refers to: CYP1A2 | human, age 1 year, recombinant human CYP1A2 | 0.1 µM |  | enzyme contribution to clearance | 0.03%
COc1ccc2nc3cc(Cl)ccc3c(Nc3cc(CN4CCCC4)c(O)c(CN4CCCC4)c3)c2n1 |  |  | mouse, blood | intraperitoneal, 14 mg/kg |  | eosinophils | 14.4%
C[C@@H]1OC(=O)NN=C1c1ccc(-c2ccc(F)cc2)c(C(F)(F)F)c1 |  | phase I trial, refers to: Dyspnoea all grades | human patients | 5 mg loading then 0.25 mg daily |  | patients with adverse event | 0%
O=C(O)CCCOc1ccc(F)cc1-c1cc(-c2ccccc2C(F)(F)F)n(-c2ccccc2)n1 |  |  | male Crl:CD(SD) rats, salivary glands | intravenous, 25 µg/kg, 14 d |  | organ weight | 0.71 ± 0.08 g
O=c1nc(NO)ccn1[C@@H]1O[C@H](CO)[C@@H](O)[C@H]1O |  |  | rat maternal placenta dialysate | 25 ng/mL, more than 4 weeks, -20 °C, low concentration, together with: molnupiravir 5 ng/mL |  | long-term stability | 102 ± 1.7%
C1=Cc2nc1cc1ccc([n-]1)c(C1CC1)c1nc(cc3ccc([n-]3)c2C2CC2)C=C1.CC(=O)[O-].[Mn+3] |  | LC-MS/MS | Sprague-Dawley rat, plasma | oral gavage, dose not given, 30 min, individual rat Rat1 |  | plasma concentration | 77 ng/mL
CN1CC[C@@H](c2c(O)cc(O)c3c(=O)cc(-c4ccc(C(F)(F)F)cc4Cl)oc23)[C@@H]1CO |  | refers to: Dizziness | relapsed or refractory haematological malignancies | oral, dose not given, all arms |  | patients with adverse event | 15%
O=[N+]([O-])c1ccc2c(c1)S(=O)(=O)C=C2 |  |  | male C57BL/6 mice, blood | intraperitoneal, 10 mg/kg, day 8, group average |  | mean corpuscular haemoglobin | 15.2 pg
Cn1c(-c2ccc(C(N)=O)cc2F)nnc1C(C)(C)Oc1c(F)cc(Cl)cc1F |  |  | human | oral, dose not given, single ascending dose all doses |  | subjects with gastrointestinal TEAE | 5.6%
O=S(=O)(Nc1ccccc1)c1ccc(NC(=S)Nc2ccccc2)cc1 |  |  | mouse, female, blood | oral, 80 mg/kg daily, 14 days |  | mean corpuscular volume | 47.4 fL
COc1ncccc1-c1cnn2ccc(N3CCN(C(=O)OC(C)C)CC3)nc12 |  |  | rat, thermal hyperalgesia model, brain | oral, 10 mg/kg, 180 min |  | drug concentration | 3.3 µM
CNC(=O)c1c(C)oc2cc(Oc3ccnc4cc(OCCN5CCOCC5)ccc34)ccc12 |  |  | patients, urine | dose not given, days 1 and 29 | baseline: dose | urinary excretion unchanged | < 1%
CCN1CCN(Cc2ccc(Nc3ncc(F)c(-c4cc(F)c5nc6n(c5c4)[C@H](C)CCC6)n3)nc2)CC1 |  |  | advanced solid tumour patients | dose not given, Phase Ia monotherapy |  | Thrombocytopenia incidence, grade ≥3 | 4.2%
CO[C@H]1C[C@@H]2CC[C@@H](C)[C@@](O)(O2)C(=O)C(=O)N2CCCC[C@H]2C(=O)O[C@H]([C@H](C)C[C@@H]2CC[C@@H](OC(=O)NCCOCCOCCOCCOCCOCCOCCOCCOCCC(=O)N3CCc4cc(Cn5nc(-c6ccc7oc(N)nc7c6)c6c(N)ncnc65)ccc4C3)[C@H](OC)C2)C[C@@H](O)[C@H](C)/C=C(\C)[C@@H](O)[C@@H](OC)C(=O)[C@H](C)C[C@H](C)/C=C/C=C/C=C/1C |  | phase 1 dose escalation, refers to: fatigue | advanced solid tumour patients | intravenous, 6 mg weekly, grade ≥3 |  | TRAE incidence | 8.3%
COc1ccnc(C(=O)N[C@H]2COC(=O)[C@H](Cc3ccccc3)[C@@H](OC(=O)C(C)C)[C@H](C)OC2=O)c1OCOC(=O)C(C)C |  |  | field soil, silty clay loam | normalised, northern France |  | DT50 | 6.69 days
CC(C)C[C@H](NC(=O)[C@H](CCCCN)NC(=O)OCC1c2ccccc2-c2ccccc21)C(=O)N[C@H](C(=O)N[C@@H](Cc1ccccc1)C(=O)N[C@@H](Cc1ccccc1)C(=O)N[C@@H](CCCCN)C(=O)NCC(=O)N[C@@H](Cc1ccccc1)C(=O)N[C@@H](C)C(=O)N[C@@H](Cc1c[nH]c2ccccc12)C(=O)N[C@@H](CC(N)=O)C(=O)N[C@H](C(=O)N[C@H]1CSSC[C@@H](C(=O)N[C@@H](Cc2c[nH]cn2)C(=O)N[C@@H](CCCNC(=N)N)C(=O)N[C@@H](CCCNC(=N)N)C(=O)N[C@@H](C)C(=O)N[C@@H](CC(N)=O)C(N)=O)NC(=O)[C@H](C(C)C)NC(=O)[C@H](CCCNC(=N)N)NC(=O)[C@H](C(C)C)NC(=O)CNC(=O)[C@H](CC(N)=O)NC(=O)[C@H](CCCNC(=N)N)NC(=O)[C@H](Cc2ccc(O)cc2)NC(=O)[C@H](C(C)C)NC1=O)C(C)C)C(C)C |  | circular dichroism, refers to: β-Turn | PBS | 80 µM, pH 7.4, together with: LTA 1 µM |  | secondary structure content | 17.5%

SMILES | target or system | assay | system | conditions | scale | endpoint | result
COc1cccc2c1C(=O)c1c(O)c3c(c(O)c1C2=O)C[C@@](O)(C(=O)CO)C[C@@H]3O[C@H]1C[C@H](N)[C@H](O)[C@H](C)O1 |  |  | healthy BALB/cJ mice | 3 mg/kg weekly, 3 weeks | baseline: control | heart weight reduction | 20%
O=C(NCCCN1CCCCC1)c1cc(Sc2ccc(Cl)cc2)nc2ccccc12 | Vero-E6 | CellTiter-Glo ATP |  | 72 h, retest 8-point duplicates | baseline: DMSO 0%, hyamine -100%, more negative, more toxic | maximum response | -7.18%
CC(C)c1nc(N(C)S(C)(=O)=O)nc(-c2ccc(F)cc2)c1/C=C/[C@@H](O)C[C@@H](O)CC(=O)O |  |  | healthy human subjects | oral, dose not given, study CL-0537 safety set |  | incidence of renal disorders | 0%
COc1ccc(C[C@@H]2NC(=O)[C@H]([C@@H](C)O)NC(=O)[C@@H]3[C@@H]4CCN3C(=O)[C@@H]3Cc5cn(c6ccc(F)cc56)CCCCCCN(Cc5ccc(cc5)CCNC(=O)[C@]5(C)CCCN5C2=O)C(=O)CCC(=O)N[C@@H](C)C(=O)N[C@H](CNC(=O)CCCCC[N+](C)(C)C)C(=O)N[C@@H](Cc2cccc(c2)CNC(=O)CO4)C(=O)N3)cc1 |  | refers to: impaired fasting glucose | human | dose not given |  | participants with adverse event | 6.5%
COc1cc2c(Oc3ccc4[nH]c(C)cc4c3F)ccnc2cc1OCC1(N)CC1 |  |  | paediatric refractory sarcoma patients | 8 mg |  | grade 3 QTc prolongation | 0%
COc1ccc(-c2c(-c3ccc(C#N)c(F)c3)nc(N3CCC(N)CC3)n(C)c2=O)cc1F |  | refers to: Pruritus | human patients | oral, dose not given, any grade, dose escalation, NG |  | treatment-related adverse event incidence | 4%
C=CC(=O)N1CC[C@H](n2nc(C#Cc3cc(OC)cc(OC)c3)c3c(N)ncnc32)C1 |  |  | human patients | oral, dose not given, QD regimen, adverse drug reaction, together with: lanthanum carbonate hydrate |  | ALT increased, any grade | 20.8%
CCS(=O)(=O)Nc1ccc(Oc2ccc(F)cc2F)c(-c2cn(C)c(=O)c3[nH]ccc23)c1 |  | fatal myocardial infarction | human, relapsed/refractory AML | oral, dose not given |  | treatment-emergent adverse events | 5%
O=C(Nc1ccccc1)C1CCN(C(=O)Oc2cccnc2)CC1 |  | adverse event reporting | healthy women | oral, 60 mg, 7 days |  | subjects with infections and infestations | 0%
C[C@]1(CO)Cc2ncn(-c3ccc(C#N)c(Cl)c3)c2C(=O)O1 |  | investigator-assessed | human | 40 mg multiple doses, fasted |  | subjects with drug-related TEAEs | 11.1%
O=C(NCCN1CCCCC1)c1ccc(-c2ccc(N3CCSCC3)nc2)cc1 | Vero-E6 | CellTiter-Glo ATP |  | 72 h, retest 8-point duplicates | baseline: DMSO 0%, hyamine -100%, more negative, more toxic | maximum response | -5.88%
C[C@H]1CN(c2n[nH]c3nc(N[C@H]4CC[C@H](NS(=O)(=O)CCC(F)(F)F)CC4)ncc23)CCO1 | Cyclin-dependent kinase 7 (CDK7, Homo sapiens, UniProt P50613) | Kinobeads competition | HEK293, K562, placenta lysate | 0.032 µM, unit not given | baseline: vehicle | remaining binding | 0.93
C=CC(=O)Nc1cc(Nc2nccc(Nc3cc(Cl)c(F)cc3C(C)(C)O)n2)c(OC)cc1N1CC[C@@H](N(C)C)C1 |  |  | human patients | oral, 300 mg, treatment-emergent adverse events |  | patients with decreased appetite | 33.3%
CC(=O)c1c(C)c2cnc(Nc3ccc(C4CCN(CCS(C)(=O)=O)CC4)cn3)nc2n(C2CCCC2)c1=O |  |  | human, plasma | oral, 100 mg twice daily, single dose, monotherapy |  | t1/2 | 5.67 h
[O-][S+]1CCc2nc(N3CCC(c4ncc(Cl)cn4)CC3)nc(NC3(CO)CCC3)c21 (stereo not drawn) |  |  | idiopathic pulmonary fibrosis patients | 18 mg twice daily |  | Pharyngitis adverse events | 0%
CCC[C@@](N)(CO)CCc1ccc(OCCCCCC(C)C)cc1 |  |  | dog, male hounds, plasma | oral capsule, 10 mg/kg, median |  | Tmax | 6 h
O=[N+]([O-])NC1=NCCN1Cc1ccc(Cl)nc1 |  | ultrafiltration | cow milk whey | 200 nM nominal in whole milk |  | final permeate concentration | 165 nM
CC[C@H](C)[C@H](NC(=O)[C@H](CC(C)C)NC(=O)[C@H](Cc1c[nH]c2ccccc12)NC(=O)[C@H](CCC(N)=O)NC(=O)[C@@H](NC(=O)[C@H](Cc1ccccc1)NC(=O)[C@H](C)NC(=O)[C@H](CCCCNC(=O)COCCOCCNC(=O)COCCOCCNC(=O)CC[C@H](NC(=O)CCCCCCCCCCCCCCCCCCC(=O)O)C(=O)O)NC(=O)[C@H](CCC(N)=O)NC(=O)[C@H](C)NC(=O)[C@@H](NC(=O)[C@H](CCCCN)NC(=O)[C@H](CC(=O)O)NC(=O)[C@H](CC(C)C)NC(=O)C(C)(C)NC(=O)[C@@H](NC(=O)[C@H](CO)NC(=O)[C@H](Cc1ccc(O)cc1)NC(=O)[C@H](CC(=O)O)NC(=O)[C@H](CO)NC(=O)[C@@H](NC(=O)[C@H](Cc1ccccc1)NC(=O)[C@@H](NC(=O)CNC(=O)[C@H](CCC(=O)O)NC(=O)C(C)(C)NC(=O)[C@@H](N)Cc1ccc(O)cc1)[C@@H](C)O)[C@@H](C)O)[C@@H](C)CC)[C@@H](C)CC)C(C)C)C(=O)N[C@@H](C)C(=O)NCC(=O)NCC(=O)N1CCC[C@H]1C(=O)N[C@@H](CO)C(=O)N[C@@H](CO)C(=O)NCC(=O)N[C@@H](C)C(=O)N1CCC[C@H]1C(=O)N1CCC[C@H]1C(=O)N1CCC[C@H]1C(=O)N[C@@H](CO)C(N)=O |  |  | human, plasma | subcutaneous, 10 mg group, week 8, geometric mean | baseline: peak over trough concentration | peak-to-trough ratio | 2.07
CC(C)[C@@H]1NC(=O)CNC(=O)[C@H](CC(N)=O)NC(=O)[C@H](CCCNC(=N)N)NC(=O)[C@H](Cc2ccc(O)cc2)NC(=O)[C@H](C(C)C)NC(=O)[C@@H](NC(=O)[C@@H](NC(=O)[C@H](CC(N)=O)NC(=O)[C@H](Cc2c[nH]c3ccccc23)NC(=O)[C@H](C)NC(=O)[C@H](Cc2ccccc2)NC(=O)CN)C(C)C)CSSC[C@@H](C(=O)N[C@@H](Cc2cnc[nH]2)C(=O)N[C@@H](CCCNC(=N)N)C(=O)N[C@@H](CCCNC(=N)N)C(=O)N[C@@H](C)C(=O)N[C@@H](CC(N)=O)C(N)=O)NC(=O)[C@H](C(C)C)NC(=O)[C@H](CCCNC(=N)N)NC1=O |  |  | ICR mice, blood | intraperitoneal, 5 mg/kg, day 5 |  | haematocrit | 41.2 ± 0.78%
O=c1cc(-c2ccc(O)c(O)c2)oc2cc(O)cc(O)c12 |  |  | male Sprague-Dawley rat, obese | oral, 100 mg/kg of neohesperidin, 24 to 36 h |  | faecal excreted amount | 58.7 ± 45.5 ng
O=C1Nc2cc3[nH]nc(-c4ccncc4)c3cc2CN1Cc1ccccc1 |  | CTCAE v4.03 | advanced solid tumour patients | intravenous, 9.6 mg/kg, schedules 1/2 |  | patients with dyspnoea | 11%

Excerpt of the above:
SMILES | target or system | assay | system | conditions | scale | endpoint | result
C[C@]1(CO)Cc2ncn(-c3ccc(C#N)c(Cl)c3)c2C(=O)O1 |  | investigator-assessed | human | 40 mg multiple doses, fasted |  | subjects with drug-related TEAEs | 11.1%
O=C(NCCN1CCCCC1)c1ccc(-c2ccc(N3CCSCC3)nc2)cc1 | Vero-E6 | CellTiter-Glo ATP |  | 72 h, retest 8-point duplicates | baseline: DMSO 0%, hyamine -100%, more negative, more toxic | maximum response | -5.88%
C[C@H]1CN(c2n[nH]c3nc(N[C@H]4CC[C@H](NS(=O)(=O)CCC(F)(F)F)CC4)ncc23)CCO1 | Cyclin-dependent kinase 7 (CDK7, Homo sapiens, UniProt P50613) | Kinobeads competition | HEK293, K562, placenta lysate | 0.032 µM, unit not given | baseline: vehicle | remaining binding | 0.93
C=CC(=O)Nc1cc(Nc2nccc(Nc3cc(Cl)c(F)cc3C(C)(C)O)n2)c(OC)cc1N1CC[C@@H](N(C)C)C1 |  |  | human patients | oral, 300 mg, treatment-emergent adverse events |  | patients with decreased appetite | 33.3%
